Measured values pooled from the literature.
Compare with care: the assays were run in different laboratories.
Organism: Staphylococcus aureus

Compound | test | test system | setting | MIC
CC[C@H](C)[C@H](N)C(=O)N[C@@H](CC(C)C)C(=O)NCC(=O)N[C@H](CCCNC(=N)N)C(=O)N[C@H](C(=O)N[C@@H](Cc1c[nH]c2ccccc12)C(=O)N[C@@H](CCCCN)C(=O)NCC(=O)N[C@H](C(=O)N[C@@H](CCCCN)C(=O)N[C@@H](CC(=O)O)C(=O)N[C@H](C(=O)N[C@@H](CC(C)C)C(N)=O)[C@@H](C)CC)[C@@H](C)CC)[C@@H](C)CC | broth microdilution | ATCC 25923 | with: NaCl 150 mM | 25 µM
CC[C@H](C)[C@H](NC(=O)[C@H](CCCCN)NC(=O)[C@@H]1CCCN1C(=O)[C@H](CCCNC(=N)N)NC(=O)[C@H](Cc1ccc(O)cc1)NC(=O)[C@H](CCCNC(=N)N)NC(=O)[C@H](CCCNC(=N)N)NC(=O)[C@@H](NC(=O)[C@H](CCCNC(=N)N)NC(=O)[C@H](CCCNC(=N)N)NC(=O)[C@H](CC(C)C)NC(=O)[C@H](Cc1ccccc1)NC(=O)[C@H](CCCNC(=N)N)NC(=O)[C@H](CO)NC(=O)[C@H](Cc1ccccc1)NC(=O)[C@@H](N)CCCNC(=N)N)C(C)C)C(=O)N[C@@H](CO)C(=O)N[C@@H](Cc1ccccc1)C(=O)N[C@@H](CC(N)=O)C(=O)N[C@@H](CC(C)C)C(=O)N[C@@H](CCC(=O)O)C(=O)N1CCC[C@H]1C(=O)N[C@@H](Cc1ccccc1)C(=O)N[C@@H](Cc1ccccc1)C(=O)N[C@@H](CCCCN)C(=O)N[C@@H](Cc1ccccc1)C(=O)O | broth microdilution | ATCC 25923, Mueller-Hinton broth | 16 to 20 h, 37 °C | 1.27 µM
CC[C@H](C)[C@H](NC(=O)[C@H](C)NC(=O)[C@H](CCCNC(=N)N)NC(=O)[C@H](CCCNC(=N)N)NC(=O)[C@@H](N)CCCNC(=N)N)C(=O)N[C@@H](CO)C(=O)NCC(=O)N[C@@H](CO)C(=O)N[C@@H](CC(C)C)C(=O)N[C@H](C(=O)N[C@H](C(=O)N[C@@H](CC(C)C)C(=O)N[C@@H](Cc1ccccc1)C(=O)NCC(=O)N[C@@H](Cc1ccc(O)cc1)C(=O)N[C@@H](CCCNC(=N)N)C(=O)N[C@@H](CCCNC(=N)N)C(=O)N[C@@H](CCCNC(=N)N)C(N)=O)[C@@H](C)O)C(C)C | broth microdilution | ATCC 29213 | highest value reported | 64 µM
c1ccc(CCOC2CCCc3c2[nH]c2ccccc32)cc1 (stereo not drawn) | broth microdilution | HG001 |  | > 16000 ng/mL
CC(C)C[C@@H](NC(=O)CNC(=O)[C@@H](CCCCN)NC(=O)[C@@H](CC(C)C)NC(=O)[C@@H](CCCCN)NC(=O)[C@@H](CCCNC(=N)N)NC(=O)[C@@H](CC(C)C)NC(=O)[C@@H](CC(C)C)NC(=O)[C@@H](CCCNC(=N)N)NC(=O)[C@H](N)CCCNC(=N)N)C(=O)N[C@H](CCCCN)C(=O)N[C@H](CCCCN)C(=O)N[C@H](Cc1ccc(O)cc1)C(=O)N[C@H](CC(C)C)C(=O)N[C@H](Cc1ccc(O)cc1)C(=O)N[C@H](Cc1ccccc1)C(=O)N[C@H](CCCCN)C(=O)N[C@H](CC(C)C)C(=O)N[C@H](CCC(N)=O)C(=O)N[C@H](CC(C)C)C(=O)N[C@H](CC(C)C)C(=O)N[C@H](CCCCN)C(=O)N[C@H](CCCCN)C(N)=O | broth microdilution | KCTC 1621, Mueller-Hinton broth | no added salt | 4 µM
CC[C@H](C)[C@H](NC(=O)[C@H](CCCCN)NC(=O)[C@H](CCCNC(=N)N)NC(=O)[C@H](CCCNC(=N)N)NC(=O)[C@H](CC(C)C)NC(=O)[C@H](CCCCN)NC(=O)[C@H](CCCCN)NC(=O)[C@H](Cc1ccccc1)NC(=O)[C@H](CC(C)C)NC(=O)CNC(=O)[C@H](CCCNC(=N)N)NC(=O)[C@@H](N)CCCNC(=N)N)C(=O)N[C@@H](CCCCN)C(=O)N[C@@H](CCCCN)C(=O)NCC(=O)N[C@@H](Cc1ccccc1)C(=O)N[C@@H](CCCCN)C(=O)N[C@@H](CCCCN)C(=O)N[C@H](C(=O)N[C@@H](Cc1ccccc1)C(=O)N[C@@H](CCCCN)C(=O)N[C@@H](CCCNC(=N)N)C(=O)N[C@@H](CC(C)C)C(=O)N1CCC[C@H]1C(=O)N1CCC[C@H]1C(=O)N[C@H](C(=O)NCC(=O)N[C@H](C(=O)NCC(=O)N[C@H](C(=O)N[C@@H](CO)C(=O)O)C(C)C)C(C)C)C(C)C)[C@@H](C)CC |  | CMCC 26003 | highest concentration 50 µM | 2.58 µM
CC[C@H](C)CCCCC(=O)N[C@@H](CCN)C(=O)N[C@H](C(=O)N[C@@H](CCN)C(=O)N[C@H]1CCNC(=O)[C@H]([C@@H](C)O)NC(=O)[C@H](CCN)NC(=O)[C@H](CCN)NC(=O)[C@H](CC(C)C)NC(=O)[C@@H](Cc2ccccc2)NC(=O)[C@H](CCN)NC1=O)[C@@H](C)O | broth microdilution | ATCC 6538 | 24 h | ≤ 50 µM
CC[C@H](C)[C@H](NC(=O)[C@H](CC(C)C)NC(=O)[C@H](CCCCN)NC(=O)[C@@H](NC(=O)[C@H](C)NC(=O)[C@H](CCC(=O)O)NC(=O)[C@H](Cc1c[nH]cn1)NC(=O)[C@@H](NC(=O)[C@H](CCCCN)NC(=O)[C@H](CCC(N)=O)NC(=O)[C@H](Cc1ccccc1)NC(=O)[C@@H](NC(=O)[C@H](CCCCN)NC(=O)[C@@H](N)CCCCN)C(C)C)[C@@H](C)CC)[C@@H](C)CC)C(N)=O | broth microdilution | USA300 resistant | 18 h, 37 °C | 64 µM
CC[C@H](C)[C@H](NC(=O)[C@H](Cc1c[nH]c2ccccc12)NC(=O)[C@@H](NC(=O)[C@H](Cc1ccccc1)NC(=O)[C@@H]1CCCN1C(=O)[C@@H](NC(=O)[C@H](C)N)[C@@H](C)CC)[C@@H](C)CC)C(=O)N[C@@H](Cc1ccccc1)C(=O)N[C@@H](CCCNC(=N)N)C(=O)N[C@@H](CC(C)C)C(=O)N[C@@H](CC(C)C)C(=O)N[C@@H](CCCNC(=N)N)C(=O)N[C@@H](CCCCN)C(=O)NCC(N)=O | broth microdilution | ATCC 6051 | 18 h, 37 °C | 1.88 µM
C/C(=C\C(=O)OCCCCCCCC(=O)Nc1c2sscc-2[nH]c1=O)[C@@H](O)[C@@H]1OC[C@H](C/C=C/[C@@H](C)[C@H](C)O)[C@@H](O)[C@H]1O |  | MRSA COL, IleRS V588F mutant |  | 0.04 µM
CC[C@H](C)[C@H](NC(=O)[C@H](CCCCN)NC(=O)[C@H](CCCCN)NC(=O)CNC(=O)[C@H](CCCCN)NC(=O)[C@H](CC(C)C)NC(=O)[C@H](CCCCN)NC(=O)[C@H](CCCNC(=N)N)NC(=O)[C@@H](NC(=O)[C@H](CC(C)C)NC(=O)[C@H](CCCNC(=N)N)NC(=O)[C@@H](N)CCCNC(=N)N)[C@@H](C)CC)C(=O)N[C@@H](Cc1ccc(O)cc1)C(=O)N[C@@H](CC(C)C)C(=O)N[C@@H](Cc1ccc(O)cc1)C(=O)N[C@@H](Cc1ccccc1)C(=O)N[C@@H](CCCCN)C(=O)N[C@@H](CC(C)C)C(=O)N[C@@H](CCC(N)=O)C(=O)N[C@@H](CC(C)C)C(=O)N[C@@H](CC(C)C)C(=O)N[C@@H](CCCCN)C(=O)N[C@@H](CCCCN)C(N)=O |  | CCARM 3089, methicillin-resistant, Mueller-Hinton broth | 24 h | 8 µM
Cn1c(=O)ccc2ccc(F)c(CCNC[C@H]3CN(c4ccc5c(n4)NC(=O)CO5)C(=O)O3)c21 |  | ATCC 29213 |  | 8 ng/mL

Some of these lines once more:
Compound | test | test system | setting | MIC
CC[C@H](C)[C@H](NC(=O)[C@H](C)NC(=O)[C@H](CCCNC(=N)N)NC(=O)[C@H](CCCNC(=N)N)NC(=O)[C@@H](N)CCCNC(=N)N)C(=O)N[C@@H](CO)C(=O)NCC(=O)N[C@@H](CO)C(=O)N[C@@H](CC(C)C)C(=O)N[C@H](C(=O)N[C@H](C(=O)N[C@@H](CC(C)C)C(=O)N[C@@H](Cc1ccccc1)C(=O)NCC(=O)N[C@@H](Cc1ccc(O)cc1)C(=O)N[C@@H](CCCNC(=N)N)C(=O)N[C@@H](CCCNC(=N)N)C(=O)N[C@@H](CCCNC(=N)N)C(N)=O)[C@@H](C)O)C(C)C | broth microdilution | ATCC 29213 | highest value reported | 64 µM
